Published values collected from several papers.
Numbers after ± are the reported error.

| SMILES | test | test system | conditions | half-life |
| --- | --- | --- | --- | --- |
| Cc1ccccc1-c1cc(N2CCNCC2)ncc1N(C)C(=O)C(C)(C)c1cc(C(F)(F)F)cc(C(F)(F)F)c1 | – | healthy volunteers, plasma | oral, dose not given, netupitant-palonosetron fixed-dose combination | 73.6 h |
| CCN(c1nc(N[C@H](CC(N)=O)C(=O)NC)nc(N2CCN(c3ccccc3C#N)CC2)n1)C1CCCCC1 | – | mouse plasma | – | 1.7 ± 0.2 h |
| [2H]C1([2H])CC[C@@H](C[C@@H](C#N)NC(=O)[C@@H]2[C@@H]3[C@H](CN2C(=O)[C@@H](NC(=O)C(F)(F)F)C(C)(C)C)C3(C)C)C(=O)N1 | – | mouse liver microsomes | microsomes 0.5 mg/mL | 0.17 h |
| O=[N][Fe]1([N]=O)[S](CCO)[Fe]([N]=O)([N]=O)[S]1CCO | degradation | simulated intestinal fluid | pH 6.8, 37 °C | 8.1 ± 0.7 h |
| CCC(CC)[C@H](NC(C)=O)[C@@H]1[C@H](O)[C@@H](C(=O)N[C@H](C(=O)O)[C@@H](C)CC)C[C@H]1NC(=N)N | – | phosphate buffer | pH 4.5, 37 °C, chemical stability | 37.5 ± 1.2 h |
| CC[C@H](C)[C@H](NC(=O)CNC(=O)CNC(=O)c1ccc2c(c1)C(=O)OC21c2ccc(O)cc2Oc2cc(O)ccc21)C(=O)N[C@@H](Cc1ccc(O)cc1)C(=O)N[C@@H](C)C(=O)N[C@H](C)C(=O)N1CCC[C@H]1C(=O)N(C)[C@@H](Cc1ccccc1)C(=O)N[C@@H](CCCCN)C(=O)N[C@@H](CCCCN)C(=O)N[C@@H](CCCCN)C(=O)N[C@@H](C)C(N)=O | CE-LIF | Baf/BCR-ABL cell cytosolic lysate | 1 µM, pH 7.4, 37 °C | 0.085 h |
| CCC(=O)N[C@@H](C)C(=O)OCC(=O)N[C@@H](C)C(=O)O | – | water | pH 2, 37 °C | 758 h |
| CC(=O)N[C@@H](Cc1cnc[nH]1)C(=O)N[C@H](Cc1ccccc1)C(=O)N[C@@H](CCCNC(=N)N)C(=O)N[C@@H](Cc1c[nH]c2ccccc12)C(=O)NCCCOCCOCCOCCCNC(=O)COCC(=O)N[C@@H](Cc1cnc[nH]1)C(=O)N[C@H](Cc1ccccc1)C(=O)N[C@@H](CCCNC(=N)N)C(=O)N[C@@H](Cc1c[nH]c2ccccc12)C(N)=O | LC-MS/MS | mouse serum | 10 µM, 37 °C | 6 h |
| CC(C)(C)c1nc(-c2ccc(NC(=O)c3cccs3)cc2Cl)no1 | plasma stability | human plasma | 5 µM, 37 °C | > 2 h |
| Nc1nc2c(ncn2COCCOC(=O)[C@@H](N)CO)c(=O)[nH]1 | – | DPBS | pH 5.0, 34 °C, chemical hydrolysis | 353 ± 199 h |
| CC(C)[C@@H]1NC(=O)[C@H](CO)NC(=O)CNC(=O)CNC(=O)[C@H](CCCNC(=N)N)NC(=O)[C@@H]2CCCN2C(=O)[C@@H](N)CSSC[C@@H](C(=O)O)NC1=O | – | plasma | – | 2.8 h |
| CC(=O)N[C@H](CC(=O)O)C(=O)N[C@H](Cc1c[nH]c2ccccc12)C(=O)N[C@H](Cc1ccccc1)C(=O)N[C@H](CCCCN)C(=O)N[C@H](C)C(=O)N[C@H](Cc1ccccc1)C(=O)N[C@H](Cc1ccc(O)cc1)C(=O)N[C@H](CC(=O)O)C(=O)N[C@H](CCCCN)C(=O)N[C@@H](C(=O)N[C@H](C)C(=O)N[C@H](CCC(=O)O)C(=O)N[C@H](CCCCN)C(=O)N[C@H](Cc1ccccc1)C(=O)N[C@H](CCCCN)C(=O)N[C@H](CCC(=O)O)C(=O)N[C@H](C)C(=O)N[C@H](Cc1ccccc1)C(N)=O)C(C)C | – | statin-treated high-risk CHD patients, plasma | oral, 300 mg daily, day 13, median, detected subjects | 0.45 h |
| Cc1ccccc1OCC(N)c1ccccc1 (stereo not shown) | chemical stability, HPLC | – | pH 7.4, 37 °C | > 720 h |
| COC(=O)C(NC(C)=O)C(C)(C)SSC(=O)Oc1ccc(C(F)(F)F)cc1 (stereo not shown) | precursor decay, RSSH release, HPLC | PBS with 50% acetonitrile | 100 µM, 37 °C, with: MMTS 1 mM | 0.933 ± 0.05 h |
| Cc1nc(-c2ccc(NC(=O)c3cccs3)cc2Cl)no1 | chemical stability | buffer | 5 µM, pH 2.0, 37 °C | 0.436 ± 0.125 h |
| COc1cc(C)c(Cc2ccc(O)cc2)cc1[C@@H]1S[C@H](CO)[C@@H](O)[C@H](O)[C@H]1O | – | Japanese T2DM patients, plasma | 2.5 mg luseogliflozin, day 7, once daily | 16.6 ± 2.42 h |

Excerpt of the above:
| SMILES | test | test system | conditions | half-life |
| --- | --- | --- | --- | --- |
| Cc1ccccc1-c1cc(N2CCNCC2)ncc1N(C)C(=O)C(C)(C)c1cc(C(F)(F)F)cc(C(F)(F)F)c1 | – | healthy volunteers, plasma | oral, dose not given, netupitant-palonosetron fixed-dose combination | 73.6 h |
